# Results collected from several papers.
# Every numbered part comes from another study and shows a few of its results, in no order.

# Series 1
# Target: PABPC1L2, full length, GST fusion (mouse, UniProt A0ABA7IW68)
# Technique: RNAcompete
# Molecule type: RNA
# Sample: in vitro
# Tested at: 20 nM
# Notes: 7-mer, probes averaged, single round
# Relative to: mean of 7-mers
# Direction: higher = stronger binding
# Target sequence (chain): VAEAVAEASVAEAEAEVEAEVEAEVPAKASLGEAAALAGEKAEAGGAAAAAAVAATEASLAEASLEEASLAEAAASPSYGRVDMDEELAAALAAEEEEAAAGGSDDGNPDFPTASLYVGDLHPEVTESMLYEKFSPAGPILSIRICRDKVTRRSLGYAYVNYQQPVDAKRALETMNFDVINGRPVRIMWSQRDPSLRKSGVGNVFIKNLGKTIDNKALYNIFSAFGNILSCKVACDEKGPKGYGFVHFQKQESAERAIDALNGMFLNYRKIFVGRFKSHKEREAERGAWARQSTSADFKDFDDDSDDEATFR
Sequence,7-mer Z-score
AUGCUAC,-0.151
UGCGUAC,-0.356
UCGUCUA,-0.461
GACGAAA,0.793
AACCGCG,0.0841
UAUGACU,-0.103
GUACCUU,-0.161
AUCUGAU,-0.0953
GCCCUGU,-0.331
CAUAUAU,-0.209
GCUGUGC,-0.229
UACAGUG,-0.135
UGUUUUC,-0.489
UGAUAUA,-0.0681
ACGCUUA,-0.258
AGUAAGC,-0.112
CAUACAU,-0.0518
UACAACG,0.00617
CACUGUU,-0.383
UUGGCAC,-0.115
UCGGUAA,0.0642
CACUUGC,-0.244
CAUCUGG,-0.115

# Series 2
# Target: RNA binding protein fox-1 homolog 2, RRM domain, GST-SBP tag (RBFOX2, Homo sapiens, UniProt O43251-10, residues 100-194)
# Technique: RNA Bind-n-Seq
# Molecule type: RNA
# Sample: in vitro
# Tested at: 365 nM
# Notes: natural RNA segment, single round, ends assumed
# Relative to: no-protein control
# Direction: higher = stronger binding
# Shared flanks, not repeated: GGGAGUUCUACAGUCCGACGAUC … UGGAAUUCUCGGGUGCCAA
# Residues (chain): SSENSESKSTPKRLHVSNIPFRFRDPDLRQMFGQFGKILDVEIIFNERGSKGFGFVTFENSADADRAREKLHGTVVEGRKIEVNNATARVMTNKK
Sequence,RBNS enrichment (R)
UAUGUAUGUGAGCACGUUGGGGUGCGCAUAAGCUAUCACCAUCUUCUUCUCUUCUAUCAUCCAAAUCAAAUGUAAGAAGUCCCUCACAUCCGAUUAGCCCAACUCUGUCU,0.242
AGAAGUGUCACACGGAGGCUUCUGUGCCAAAGACUGCCUUGUAGAGGUCUCAUCACCUCACACUUCUUGACUUCACAAAAUUGUGGCCCUGAGAUCAGUACUCCUCUCUU,0.415
AUAUUUUAAACAGCUUUGCUUGUAUUGUGAAGAUUUAAGAACAAACUUGAGAUUUUUAAAGUUAACUAUUAACACAGUUUUAACAUAAGUUAUCCCACUGGGUUUAAAAG,0.409
UAUUUAACGAUUGCCUGACAGUCGAGUGUUUCCAAUGUGGUCGUCCAGUUUCUAUGGCCUUGCUGUGGACUUUCCCCUCUUUGUCGGUAACCUUUCGCCUAUGGCUUACA,0.378
UAUUCUUCUGAGUGUCUAUGUUAACUUCCCUCUAUCCCGCUUAUAAAAAAAUUCUCCAACAAAAAUACUUGUUGACUUGAUGUUUUAUCACUUCUCUAAGUAAGGUUGAA,0.252
UUGCUGAAGGAAAAAUCGGACUGCAAAUCAUUCCAAGGCCAAACUGCAACUGAGCCACCCACUCCCAAACAGGAAACCCUGGUGAAGGUUCAGGAAGCACGGAGAUUCUC,0.17
UGCUGUAUUGGUAUUUGUCUGUUGGGAUUUCAAGGGAGUGUAGAGAAGACAGAAGGAAAGCUGAGAGCUGGCCCGACAUGGUCUGGGACACAGAGUUGGAGCUGGCACUG,0.955
AUGCCUUAUUUAUGUAUUCAUGUUAAAAUUUAGAAUUAUUUUAAAUAAAAACUUUCUCUUAAAGCUUACUGCUUUUGAAUUUAUAACCUAAAACCUGAGAAAAGGGAAUA,0.801
AGUGGGAAAUACAUUGUGCCUUUCUCUAGAUGUGAUACGUUAUACCAAAAUCUUUGUAGUGUGCAGAGCGGUGGUUUGAGACUAAAUACAGGCUUAGAACUUGCAGAGUG,0.444
AAAAUUAUAUAGGUUCUGAUGAAAGCUUCAUAAUUUCACCCUGUGACUAUCCUGAAAAGAAAUAAUAAUCAUUUUAUGAUUGAUGGGCCAAAAAAAGCAAUCAAAGUCUU,0.356
CAGUGGAUACUUAAGACUCAAAGAGCCACCACUACUUUAUUUUUUAUACACUUGGUCUUUCCAUGUAUAUACCGGCCUCUGUUUUUUUUUUUUCCAAUCUCUGGCUCUUC,0.873
AAAAGCUAGACAGAUCCCCGUUCCUGACAUCACAGCAGCCUCCAACACAAGGCUCCAAGACCUAGGCUCAUGGACGAGAUGGGAAGGCACAGGGAGAAGGGAUAACCCUA,0.209

# Series 3
# Target: Interferon regulatory factor 7, full length, phosphomimetic (IRF7, Homo sapiens, UniProt Q92985, residues 1-503, S101K/S471D/S472D/S475D/S476D/S477D/S483D/S484D/S487D)
# Technique: protein-binding microarray
# Molecule type: double-stranded DNA, one strand shown
# Sample: in vitro
# Tested at: 250 nM
# Notes: 60-bp whole probe
# With: salmon DNA 0.4 mg/ml
# Relative to: random background probes
# Direction: higher = stronger binding
# Shared flanks, not repeated: GCCTAGCAC … GTCTTGATTCGCTTGACGCTGCTG
# Construct (chain): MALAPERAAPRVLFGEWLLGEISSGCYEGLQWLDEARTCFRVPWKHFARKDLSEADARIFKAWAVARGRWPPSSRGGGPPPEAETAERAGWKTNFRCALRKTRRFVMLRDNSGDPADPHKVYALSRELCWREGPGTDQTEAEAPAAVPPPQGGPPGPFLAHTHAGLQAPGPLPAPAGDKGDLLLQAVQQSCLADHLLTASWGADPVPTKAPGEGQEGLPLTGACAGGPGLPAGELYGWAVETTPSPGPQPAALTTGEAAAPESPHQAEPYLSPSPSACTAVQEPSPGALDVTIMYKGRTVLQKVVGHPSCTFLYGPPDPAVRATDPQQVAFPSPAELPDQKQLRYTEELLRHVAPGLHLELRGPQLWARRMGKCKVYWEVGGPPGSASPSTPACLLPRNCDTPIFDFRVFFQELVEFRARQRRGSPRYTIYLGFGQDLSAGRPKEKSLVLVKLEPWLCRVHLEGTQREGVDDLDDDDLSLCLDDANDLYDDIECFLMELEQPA
Sequence,log fluorescence
TCAGATTTCAGTTTTCTACTGTGCTAG,0.745 z-score
GACGATATCGGTTTCGGGACGTGCTAG,3.43 z-score
GACGGCCTGCTTTTCCTGACGTGCTAG,-0.144 z-score
GATGGACTGCTACTGCTGACGTGCTAG,-0.94 z-score
GACAGACTGGACACTGGGGACGTGCTA,-0.723 z-score
TTCGGTCTCGGTATCGGTTAGTGCTAG,3.43 z-score
TCATTTTACTTTCTATCACTGTGCTAG,2.06 z-score
TAACTTTCCAATTGTCCTTTCGTGCTA,2.17 z-score
TCAGAATTCAGAATGGGACTGTGCTAG,-0.104 z-score
CACGAACTGGGGTTTCGAGACGTGCTA,1.63 z-score
GACGAGCTGAGACTGGAGACGTGCTAG,-0.745 z-score
TTAGGTCTCCGTCTCCTTTAGTGCTAG,0.325 z-score
TCAATTTTCTCTGTTCTACTGTGCTAG,1.24 z-score
GACCGACTGGACTATCGGGACGTGCTA,-0.26 z-score
GACGAACTAAGTCTCGAGACGTGCTAG,0.556 z-score
TTAGGTATCGGTAACGGTTAGTGCTAG,0.392 z-score
GACTGTCTCGGTCTCGGGACGTGCTAG,0.658 z-score
GACGGTTTCGGGGTTCGGGACGTGCTA,3.56 z-score
GACGGACGGGGGACTGGGGACGTGCTA,1.21 z-score
TTAGGTTACGGTTCCGGTTAGTGCTAG,2.67 z-score
GACCGTATCGGGTATCGGGACGTGCTA,0.623 z-score
TCAGGACTGGACTATCGGTTAGTGCTA,-0.54 z-score
TTAGTTATCAGTTTCGATTAGTGCTAG,8.62 z-score
TTCCCTTTTAAGTTCTCTGAGTGCTAG,3.11 z-score
GACGGTCTCGGTTCCGGGACGTGCTAG,3.13 z-score

# Series 4
# Target: Histone acetyltransferase KAT6A, winged helix 1, GST fusion (KAT6A, Homo sapiens, UniProt Q92794, residues 1-85)
# Technique: protein binding microarray
# Molecule type: double-stranded DNA, one strand shown
# Sample: in vitro
# Tested at: not given
# Notes: 8-mer, flanks averaged, mean of 2 arrays, mostly near background
# Relative to: not given
# Direction: higher = stronger binding
# Target sequence (chain): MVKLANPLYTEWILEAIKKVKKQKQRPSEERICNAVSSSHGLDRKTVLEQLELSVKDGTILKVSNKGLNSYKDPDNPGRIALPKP
Sequence,E-score
AAAACTGC,-0.171
CGCGGATC,0.373
CACAGCCA,-0.0933
CTCGTTTC,-0.18
GCGCCTCA,0.253
ATTGGCTC,-0.262
ATAAAACA,-0.0918
CGGGATTA,0.336
CGTCACCC,0.147
CTCTGACA,-0.121
AACGCCTT,0.166
AGGTCAGG,-0.256
CAGTCACC,0.00947
CTCAATCA,-0.114
AAATGTAA,-0.131
CGTTGGAA,-0.0844
TAGACATA,-0.117
CGGTATTA,0.197

# Series 5
# Target: Fragile X messenger ribonucleoprotein 1, C-terminal low-complexity region (Fmr1, Mus musculus, UniProt P35922)
# Technique: RNA Bind-n-Seq
# Molecule type: RNA
# Sample: in vitro
# Tested at: 200 nM
# Notes: whole 134-nt RNA, ends assumed
# With: 150 mM LiCl
# Relative to: input library
# Direction: higher = stronger binding
# All molecules: 7-deaza-guanosine replaces G
# Shared flanks, not repeated: GGGAGUUCUACAGUCCGACGAUC … UGGAAUUCUCGGGUGUCAAGG
Sequence,log2 enrichment
UCCUGUGCUACACAUCGUAUGUACCGAAUCAAAGUGUGUGUGUGUGUGUGUGUGUGUAAAAAAGUAUUAUGUUACGCCGUUCGGAUCUGC,-0.601
UGGCCCUGGUGGCAUGCGGGGAGGAAGAGGUGGCCUCAUGGAUCGUGGUGGUCCCGGUGGAAGGUUCAGAGGUGGCCGUGGUGGAGACAG,0.0456
CCUGUGCUACACAUCGUAUGUACCGAAUCGGGAAAAAAGGGGAAAAAAGGGAAAAAAGGGGAAAGUAUUAUGUUACGCCGUUCGGAUCUG,0.508
CUGUGCUACACAUCGUAUGUACCGAAUCGGUUUUUUUGGGGUUUUUUUGGGGUUUUUUUGGAAAGUAUUAUGUUACGCCGUUCGGAUCUG,1.26
CCUGUGCUACACAUCGUAUGUACCGAAUCGGAAAAAAAGGGAAAAAAAGGGGAAAAAAAGGAAAGUAUUAUGUUACGCCGUUCGGAUCUG,-0.164
ACCAUGCAGGUGGGCAUCUUUGGGAAGUGGGGCAAGGGGAAAAUAGGGAGGGGGGUAACACUUUGGGAACAGGUGGUCCCAGGUCGUUUC,1.1
UGGGAGGUGGAUUUUGUUUAUUUUUUUAGCUCAUUUCCAGGGGUGGGAAUUUUUUUUUAAUAUGUGUGAUGAAUAAAGUUGUUUUUGAAA,0.475
GUAGCUGCUCCAGUGGGCCCAGUGGGCCCCACUCCUACAGUUUUGCCCAUGGGAGCCCCUGUUCCCCGGCCUCGUGGUCCCCCACCGCCC,1.12
CACAGACAACACGCACCCACACGGACACAGAGGGAAGGGGUUGGGAUGGGGACAGGGUGCACAGCAGGGCGGGGUAGGACCCCAGCCCCU,0.813
CACAGACAACACGCACCCACACAGACACAGAAAAAAGGGGUUGGGAUGGGGACAGGGUGCACAGCAGGGCGGGGUAGGACCCCAGCCCCU,0.432
ACCAUGCAGGUGGGCAUCUUUGGGAAGUGGGGCAAGGGGGGGAUAGGGAGGGGGGUAACACUUUGGGAACAGGUCGUCCCAGGUCGUUUC,1.73

# Some of these lines once more (series 3):
Sequence,log fluorescence
TAACTTTCCAATTGTCCTTTCGTGCTA,2.17 z-score
TCAGAATTCAGAATGGGACTGTGCTAG,-0.104 z-score
CACGAACTGGGGTTTCGAGACGTGCTA,1.63 z-score
GACGAGCTGAGACTGGAGACGTGCTAG,-0.745 z-score
TTAGGTCTCCGTCTCCTTTAGTGCTAG,0.325 z-score
